Measured values pooled from the literature.
Each numbered part is a random draw from the data of one study; scales do not carry over between parts. pIC50: −log10 of the molar value.

Sample 1
Cell line: HEK-293T/ACE2
Tested at: 10 µM
Time: 16 h
Reference: vehicle
Compound	viability
COCCCOc1cc(C[C@@H](C[C@H](N)[C@@H](O)C[C@H](C(=O)NCC(C)(C)C(N)=O)C(C)C)C(C)C)ccc1OC	102%
C[C@]12C=CC(=O)C=C1CC[C@@H]1[C@@H]2[C@@H](O)C[C@@]2(C)[C@H]1CC[C@]2(O)C(=O)CO	103%
Cc1nnc(SCC2=C(C(=O)O)N3C(=O)[C@@H](NC(=O)Cn4cnnn4)[C@H]3SC2)s1	101%

Sample 2
Target: Centromere-binding protein 1, full length, His-tagged (CBF1, Saccharomyces cerevisiae, UniProt P17106, residues 1-351)
UniProt P17106, sequence (whole entry, looked up): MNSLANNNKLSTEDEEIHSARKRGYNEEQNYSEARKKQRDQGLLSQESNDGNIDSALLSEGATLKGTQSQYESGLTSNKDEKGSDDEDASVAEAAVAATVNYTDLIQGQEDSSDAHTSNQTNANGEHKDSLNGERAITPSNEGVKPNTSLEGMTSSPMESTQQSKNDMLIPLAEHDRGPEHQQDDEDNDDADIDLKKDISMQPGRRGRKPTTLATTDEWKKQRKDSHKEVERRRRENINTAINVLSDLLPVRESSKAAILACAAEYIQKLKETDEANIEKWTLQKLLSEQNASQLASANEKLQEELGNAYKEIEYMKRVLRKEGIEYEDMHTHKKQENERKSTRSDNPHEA
Technique: competition protein-binding microarray
Molecule type: double-stranded DNA, one strand shown
Matrix: in vitro
Tested at: 2 µM
Notes: whole 60-bp probe, lowest competitor level
Together with: Pho4 competitor, 0.05 µM
Direction: higher = stronger binding
Oligonucleotide	fluorescence intensity
AAAACTTACTTCCGTCACATGCAAGATGTAGACCCAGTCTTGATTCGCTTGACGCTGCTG	533 a.u.
AAATTACTAAGTTGGGGCGTGGGTGACGCCGTATGAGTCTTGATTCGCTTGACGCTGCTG	66.7 a.u.
ACCTAGAAATCGAGTCACGTGACGAAAATAAACAAGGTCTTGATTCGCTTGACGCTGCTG	35100 a.u.
AATAGGCTTTGCCTACACGTGACTCGTATTTGGTGTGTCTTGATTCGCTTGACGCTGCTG	5220 a.u.
AATAAATACGAGCATCACAATACCCCAAGAGGAGAAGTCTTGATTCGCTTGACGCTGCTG	73.5 a.u.
TTTCCTCTTGAGATGGACGTGCTTTAGCCGGCCGGAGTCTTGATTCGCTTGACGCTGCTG	61.3 a.u.
CGGGGTTAAGTTTTTCACGTGGTGTGCTTGCAGCAGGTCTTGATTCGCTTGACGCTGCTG	742 a.u.
AAAGCGGTAATTTGCTGAGTGGGTGCAGATATCTATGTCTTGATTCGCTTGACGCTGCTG	87.4 a.u.

Sample 3
Target: RING finger protein unkempt homolog, zinc fingers 1-6, GST-SBP tag (UNK, Homo sapiens, UniProt Q9C0B0, residues 30-357)
UniProt Q9C0B0, sequence (30-357, looked up): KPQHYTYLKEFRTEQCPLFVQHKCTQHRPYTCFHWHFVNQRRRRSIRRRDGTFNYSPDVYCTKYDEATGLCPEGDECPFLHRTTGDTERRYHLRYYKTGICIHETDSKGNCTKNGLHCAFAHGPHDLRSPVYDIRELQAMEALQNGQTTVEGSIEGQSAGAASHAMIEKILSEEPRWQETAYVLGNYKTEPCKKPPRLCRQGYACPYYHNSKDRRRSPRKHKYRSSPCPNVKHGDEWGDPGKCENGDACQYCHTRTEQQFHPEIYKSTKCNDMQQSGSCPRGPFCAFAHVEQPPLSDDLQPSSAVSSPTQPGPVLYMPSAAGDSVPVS
Technique: RNA Bind-n-Seq
Molecule type: RNA
Matrix: in vitro
Tested at: not given
Notes: RNA with constant flanks, human-mouse chimeric sites, ends assumed
Reference: input RNA pool
Direction: higher = stronger binding
Oligonucleotide	bound/input enrichment [ratio]
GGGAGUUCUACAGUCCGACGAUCCUGGCACUCUAUCAGAUAUAUUAAUUUUUAAAUGUAGAUGUAAUUUUAAAAAUGAAUGGCUACUUUACACGUUUAACUAGGGUUUUACUAUAUAUGUGUGUGUAUAUAUAUAUAUAUAUACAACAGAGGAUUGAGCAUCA	24.6
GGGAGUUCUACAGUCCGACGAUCUCAGAAGCUGUGCUGGGUCACUUUCCGUAUCCAGAUCCUUCACAGUGGACAGAUGAAGAACUGGGAAUCCCUCCUGAUGACGAGGACUGACACUGUAAACUCUCUGGACGAGUAGGAGCACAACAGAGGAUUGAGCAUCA	0.68
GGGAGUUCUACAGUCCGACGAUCUUGCCUGAGAACGAGGAUGAGCUGGAGAGCACCAACAGACGCUAUACCAAGAGGGACUGCAGCACUUUCCUCAGAACUAGUGAGACGGGCAUCGUGGACCAGGUCAUGGUCACUCUCAACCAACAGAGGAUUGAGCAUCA	0.23
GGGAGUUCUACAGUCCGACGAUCGCCACCAGAUCCCAGAAACAUGACCCUUGCUGCCUACAAGGAGAAGAUGAAGGAGCUCCCGCUGGUGUCCUUGUUCUGCUCCUGCUUCUUGUCUGAUCCCCUGAAUAAGUCGUCCUACAACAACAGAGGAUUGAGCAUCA	0.19
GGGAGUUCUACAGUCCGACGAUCACUCUUGACUCUUUCCAUCCUCUUCCUUUCCCUCUUGAUAUUCAAGGCCAUGAAUCCCAAAAUAGCUGUCUUAGUGGCUAGCACCCAAACAGAGGUGGAAUAAAUCCACCCCAGUGUCUCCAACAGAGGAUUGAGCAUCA	0.939
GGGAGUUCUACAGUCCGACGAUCACAGUUAUAUUGUUGAGGUUUGUAUUUAUAUAUUCUUGUAGUGUCUGCUUGCCUGUGACUUCUGGUAAAAUAAAAUAAGCCUUUGAAAAUAUUUUAGAUUUAACAUUAACAUUUUCUAAACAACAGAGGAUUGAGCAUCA	4.67
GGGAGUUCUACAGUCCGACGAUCGCAGGAUCUUCUAAGUACCAGUGGGACAUUAUGAAAUCCCUUGGGCUGUCUGAUGAAGACAUAGUGAAGUUUUCUGAAGCAGAGCACUGGCUUGAUUAUUUCCCGCCACUGGCCGUUCAGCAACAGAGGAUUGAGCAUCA	0.128
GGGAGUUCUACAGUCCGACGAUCGUGACUGGUGUUAAGAUUUCCCCUCAGCAAAGAAGUGUAGCAGUGACCAUAAUUCCAUCUGUGGUGAGUGCCAGUCAGAUUGUGGAGCUGGUCCCAGAACUCAGUUUAGACAUGGGAACUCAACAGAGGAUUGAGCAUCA	0.414

Sample 4
Target: Replicase polyprotein 1ab, nsp13 helicase (rep, Severe acute respiratory syndrome coronavirus 2, UniProt P0DTD1)
Mode: inhibitor
Tested at: 20 µM
SMILES	inhibition [%]
C[C@@H](Oc1ccc(Cl)cc1)c1ccnc2ncnn12	5.02
O=C(Nc1cc(Cl)cc(Cl)c1O)c1c(O)c(Cl)cc(Cl)c1Cl	5.34
O=C1c2ccccc2-c2n[nH]c3cccc1c23	8.84
O=C(Nc1c(Cl)cncc1Cl)c1ccc(OC(F)F)c(OCC2CC2)c1	-0.65
S=P(N1CC1)(N1CC1)N1CC1	-5.42
COc1ccc(C(=O)CC2(O)C(=O)Nc3c(Cl)ccc(Cl)c32)cc1 (centres unmarked)	3.62
Cc1ccc(Nc2c(F)cccc2Cl)c(CC(=O)O)c1	-0.03
N#Cc1ccc2[nH]c(O)c(-c3ccc(CN4CCOCC4)cn3)c2c1	4.16
CC(C)(O)CS(=O)(=O)Nc1ccc2c(c1)CCN(C(=O)COc1cccnc1)C2	6.35
O=C1N(c2ccccc2)c2ccccc2C1(Cc1ccncc1)Cc1ccncc1	1.17
COC(=O)N1CCN(Cc2cccc(NC(=O)Nc3ccc(C)nc3)c2F)CC1	2.8
CCOC(=O)NNc1nncc2ccccc12	0.02
CCCCNc1ncc2c(-c3ccc(CN4CCN(C)CC4)cc3)cn([C@H]3CC[C@H](O)CC3)c2n1	19.8
N#Cc1ccc(NCCNCC(=O)N2CCC[C@H]2C#N)nc1	-0.14
Cc1c[nH]c(=O)n(CCCN2CCN(c3ccccc3OCC(F)(F)F)CC2)c1=O	5.56
Nc1ccc(C(=O)Nc2cccc(-c3nc(N4CCOCC4)c4oc5ncccc5c4n3)c2)cn1	4.19
CC1=C(C)C(=O)C(C(CCCCCC(=O)O)c2ccccc2)=C(C)C1=O (centres unmarked)	5.99
Cc1cnc(Nc2ccc(OCCN3CCCC3)cc2)nc1Nc1cccc(S(=O)(=O)NC(C)(C)C)c1	13
CC(C)CN(C[C@@H](O)[C@H](Cc1ccccc1)N(C(=O)CNCc1cccc(F)c1)[C@H](C(N)=O)C(C)(C)C)S(=O)(=O)c1cccc(N)c1	1.94
S=C(NCCc1ccccn1)Nc1ccc(Br)cn1	8.82
CCN1CCCC1=O	-8.65
Oc1cccc(O)c1	-2.22
O=C(O)CNC(=O)C1C(=O)N(C2CCCCC2)C(=O)N(C2CCCCC2)C1=O	2.83
C=CCN1CC[C@]23CCCC[C@H]2[C@H]1Cc1ccc(O)cc13	0.75
O=c1[nH]c(=O)n(C2CCCO2)cc1F (centres unmarked)	5.96

Sample 5
Target: Sal-like protein 4, full length isoform B (SALL4, Homo sapiens, UniProt Q9UJQ4-2, residues 1-616)
Technique: universal PBM
Molecule type: double-stranded DNA, one strand shown
Matrix: in vitro
Tested at: not given
Notes: 8-mer, flanks averaged, mean of replicates
Direction: higher = stronger binding
Oligonucleotide	E-score
CCGGCAGG	-0.28
CTATCGTC	-0.0592
CGTTACGC	0.0817
CAACGCAG	-0.25
GCTCTTAC	-0.0982
AAGAAGGG	-0.108
AAATTCCC	0.143
CAACGTGC	-0.148

Single results of other studies
SMILES	target	assay	setting	measurement	result
N#CSc1cc(SC#N)c(N)nc1N	Replicase polyprotein 1ab, main protease (rep, Severe acute respiratory syndrome coronavirus 2, UniProt P0DTD1)	enzyme activity, inhibitor	together with: DTT	pIC50	5.36

Repeated from above (sample 4):
SMILES	inhibition [%]
Cc1cnc(Nc2ccc(OCCN3CCCC3)cc2)nc1Nc1cccc(S(=O)(=O)NC(C)(C)C)c1	13
CC(C)CN(C[C@@H](O)[C@H](Cc1ccccc1)N(C(=O)CNCc1cccc(F)c1)[C@H](C(N)=O)C(C)(C)C)S(=O)(=O)c1cccc(N)c1	1.94
S=C(NCCc1ccccn1)Nc1ccc(Br)cn1	8.82
CCN1CCCC1=O	-8.65
